{"data": "Assay results from different studies", "BCHE": "Cholinesterase (BCHE, Homo sapiens, UniProt P06276)", "note": "Each line is one published result; not all experiments were run side by side. Numbers after ± are the reported error.", "UniProt P06276, sequence (whole entry, looked up)": "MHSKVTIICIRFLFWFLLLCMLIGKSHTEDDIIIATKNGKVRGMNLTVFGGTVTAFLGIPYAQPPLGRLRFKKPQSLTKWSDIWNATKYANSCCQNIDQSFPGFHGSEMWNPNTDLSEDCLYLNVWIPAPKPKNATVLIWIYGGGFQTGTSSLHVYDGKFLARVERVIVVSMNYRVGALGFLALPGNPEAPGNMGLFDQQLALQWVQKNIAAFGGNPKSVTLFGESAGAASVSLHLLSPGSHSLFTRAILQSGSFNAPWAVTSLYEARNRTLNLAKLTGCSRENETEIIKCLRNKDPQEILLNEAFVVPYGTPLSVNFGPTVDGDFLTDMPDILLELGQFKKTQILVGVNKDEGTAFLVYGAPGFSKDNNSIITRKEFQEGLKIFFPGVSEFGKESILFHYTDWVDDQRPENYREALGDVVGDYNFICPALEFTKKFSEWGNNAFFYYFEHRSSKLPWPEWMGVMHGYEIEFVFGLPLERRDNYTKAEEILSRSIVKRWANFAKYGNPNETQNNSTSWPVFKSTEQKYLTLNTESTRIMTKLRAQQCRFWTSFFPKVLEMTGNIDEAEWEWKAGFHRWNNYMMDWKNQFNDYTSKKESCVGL", "UniProt P43681, sequence (whole entry, looked up)": "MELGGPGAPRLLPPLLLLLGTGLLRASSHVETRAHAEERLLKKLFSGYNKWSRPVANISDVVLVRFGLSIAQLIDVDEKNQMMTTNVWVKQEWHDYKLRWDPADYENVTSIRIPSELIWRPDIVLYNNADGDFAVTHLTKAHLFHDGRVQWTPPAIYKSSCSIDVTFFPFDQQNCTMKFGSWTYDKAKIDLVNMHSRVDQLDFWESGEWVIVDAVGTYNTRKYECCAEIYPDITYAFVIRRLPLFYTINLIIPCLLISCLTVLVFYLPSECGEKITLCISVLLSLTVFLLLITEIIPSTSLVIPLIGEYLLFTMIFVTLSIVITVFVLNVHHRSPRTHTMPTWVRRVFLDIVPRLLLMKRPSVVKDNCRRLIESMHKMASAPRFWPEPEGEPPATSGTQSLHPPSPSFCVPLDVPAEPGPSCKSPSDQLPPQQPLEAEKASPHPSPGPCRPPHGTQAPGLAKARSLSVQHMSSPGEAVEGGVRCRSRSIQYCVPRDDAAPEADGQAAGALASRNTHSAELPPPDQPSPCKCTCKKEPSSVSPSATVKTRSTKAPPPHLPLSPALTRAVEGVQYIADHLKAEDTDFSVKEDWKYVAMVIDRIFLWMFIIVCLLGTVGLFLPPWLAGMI", "UniProt P17787, sequence (whole entry, looked up)": "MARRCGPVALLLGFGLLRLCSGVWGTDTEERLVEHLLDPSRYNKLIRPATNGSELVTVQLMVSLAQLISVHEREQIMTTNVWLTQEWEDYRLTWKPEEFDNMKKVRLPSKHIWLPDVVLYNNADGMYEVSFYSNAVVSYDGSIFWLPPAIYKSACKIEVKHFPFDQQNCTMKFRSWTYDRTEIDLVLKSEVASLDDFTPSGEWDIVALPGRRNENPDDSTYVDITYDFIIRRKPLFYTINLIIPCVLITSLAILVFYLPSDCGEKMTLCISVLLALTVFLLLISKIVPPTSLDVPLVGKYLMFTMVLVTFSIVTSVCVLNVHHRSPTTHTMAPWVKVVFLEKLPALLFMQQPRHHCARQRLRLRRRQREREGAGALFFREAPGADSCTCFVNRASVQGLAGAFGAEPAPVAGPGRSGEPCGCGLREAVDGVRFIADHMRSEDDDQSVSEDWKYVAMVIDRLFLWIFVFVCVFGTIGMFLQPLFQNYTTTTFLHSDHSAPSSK", "UniProt P18825, sequence (whole entry, looked up)": "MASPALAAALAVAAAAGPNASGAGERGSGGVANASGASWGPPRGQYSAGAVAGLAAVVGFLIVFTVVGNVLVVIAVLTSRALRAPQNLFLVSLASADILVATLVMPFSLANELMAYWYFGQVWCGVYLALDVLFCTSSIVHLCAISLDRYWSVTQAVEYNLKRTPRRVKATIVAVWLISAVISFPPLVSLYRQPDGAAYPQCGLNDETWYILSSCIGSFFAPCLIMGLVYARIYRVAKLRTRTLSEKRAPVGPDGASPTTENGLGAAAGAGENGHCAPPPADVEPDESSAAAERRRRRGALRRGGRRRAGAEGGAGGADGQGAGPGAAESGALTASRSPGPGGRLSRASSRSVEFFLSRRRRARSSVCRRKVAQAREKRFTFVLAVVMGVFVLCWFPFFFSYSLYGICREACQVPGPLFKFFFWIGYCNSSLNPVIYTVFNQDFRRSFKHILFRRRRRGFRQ", "UniProt P35367, sequence (whole entry, looked up)": "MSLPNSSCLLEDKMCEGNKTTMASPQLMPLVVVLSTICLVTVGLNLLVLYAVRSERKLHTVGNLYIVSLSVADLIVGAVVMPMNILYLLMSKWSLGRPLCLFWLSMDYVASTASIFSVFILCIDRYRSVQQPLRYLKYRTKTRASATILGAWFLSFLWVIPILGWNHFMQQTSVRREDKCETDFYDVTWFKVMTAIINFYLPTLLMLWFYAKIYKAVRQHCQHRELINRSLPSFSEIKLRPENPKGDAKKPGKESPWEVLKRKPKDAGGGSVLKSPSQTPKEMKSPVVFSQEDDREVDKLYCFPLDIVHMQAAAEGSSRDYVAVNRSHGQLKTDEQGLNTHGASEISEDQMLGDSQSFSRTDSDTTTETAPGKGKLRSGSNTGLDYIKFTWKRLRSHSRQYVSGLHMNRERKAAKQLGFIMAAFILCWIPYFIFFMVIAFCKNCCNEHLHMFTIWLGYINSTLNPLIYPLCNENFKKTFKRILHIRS", "UniProt P49146, sequence (whole entry, looked up)": "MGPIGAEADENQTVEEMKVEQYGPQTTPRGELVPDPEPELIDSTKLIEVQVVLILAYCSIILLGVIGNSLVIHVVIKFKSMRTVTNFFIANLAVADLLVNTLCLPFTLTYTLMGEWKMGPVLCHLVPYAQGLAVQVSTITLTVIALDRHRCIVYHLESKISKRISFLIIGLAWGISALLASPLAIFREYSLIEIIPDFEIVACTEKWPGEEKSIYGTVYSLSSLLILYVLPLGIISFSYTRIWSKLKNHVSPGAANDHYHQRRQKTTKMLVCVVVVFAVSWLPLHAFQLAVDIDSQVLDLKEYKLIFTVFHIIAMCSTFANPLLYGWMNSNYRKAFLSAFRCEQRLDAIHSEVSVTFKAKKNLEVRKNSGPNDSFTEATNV", "UniProt Q92743, sequence (whole entry, looked up)": "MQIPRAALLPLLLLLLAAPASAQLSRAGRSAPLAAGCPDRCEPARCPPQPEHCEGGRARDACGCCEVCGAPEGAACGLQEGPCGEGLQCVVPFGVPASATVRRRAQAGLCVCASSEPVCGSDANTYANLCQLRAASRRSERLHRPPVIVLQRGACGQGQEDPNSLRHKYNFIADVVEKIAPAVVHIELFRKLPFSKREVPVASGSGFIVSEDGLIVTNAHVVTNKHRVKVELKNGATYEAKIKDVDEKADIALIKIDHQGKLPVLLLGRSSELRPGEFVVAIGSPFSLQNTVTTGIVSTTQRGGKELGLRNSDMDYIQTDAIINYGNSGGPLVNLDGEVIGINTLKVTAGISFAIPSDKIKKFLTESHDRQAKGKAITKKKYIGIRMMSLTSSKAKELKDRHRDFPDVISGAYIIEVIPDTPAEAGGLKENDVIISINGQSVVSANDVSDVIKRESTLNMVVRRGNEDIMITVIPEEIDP", "UniProt Q7Z602, sequence (whole entry, looked up)": "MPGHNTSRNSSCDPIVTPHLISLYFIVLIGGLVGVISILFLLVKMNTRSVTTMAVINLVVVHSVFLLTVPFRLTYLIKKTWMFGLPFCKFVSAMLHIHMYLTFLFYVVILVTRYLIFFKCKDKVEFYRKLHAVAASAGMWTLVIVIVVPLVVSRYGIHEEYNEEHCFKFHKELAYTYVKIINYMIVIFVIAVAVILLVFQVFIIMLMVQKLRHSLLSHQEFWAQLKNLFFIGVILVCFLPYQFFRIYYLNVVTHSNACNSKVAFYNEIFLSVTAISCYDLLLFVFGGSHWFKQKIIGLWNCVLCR", "UniProt P02708, sequence (whole entry, looked up)": "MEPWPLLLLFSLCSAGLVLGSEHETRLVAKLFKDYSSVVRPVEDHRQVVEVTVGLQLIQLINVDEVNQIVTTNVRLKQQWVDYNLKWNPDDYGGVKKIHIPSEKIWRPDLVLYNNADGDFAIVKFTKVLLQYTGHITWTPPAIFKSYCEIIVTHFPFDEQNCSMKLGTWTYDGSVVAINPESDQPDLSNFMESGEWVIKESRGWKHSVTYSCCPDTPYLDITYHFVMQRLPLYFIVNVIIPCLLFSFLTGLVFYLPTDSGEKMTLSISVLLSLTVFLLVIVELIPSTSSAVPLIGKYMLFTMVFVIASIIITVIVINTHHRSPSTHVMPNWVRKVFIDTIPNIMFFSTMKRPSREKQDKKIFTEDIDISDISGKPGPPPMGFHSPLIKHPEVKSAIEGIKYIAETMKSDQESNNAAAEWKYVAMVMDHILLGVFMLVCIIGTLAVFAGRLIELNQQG", "UniProt P24723, sequence (whole entry, looked up)": "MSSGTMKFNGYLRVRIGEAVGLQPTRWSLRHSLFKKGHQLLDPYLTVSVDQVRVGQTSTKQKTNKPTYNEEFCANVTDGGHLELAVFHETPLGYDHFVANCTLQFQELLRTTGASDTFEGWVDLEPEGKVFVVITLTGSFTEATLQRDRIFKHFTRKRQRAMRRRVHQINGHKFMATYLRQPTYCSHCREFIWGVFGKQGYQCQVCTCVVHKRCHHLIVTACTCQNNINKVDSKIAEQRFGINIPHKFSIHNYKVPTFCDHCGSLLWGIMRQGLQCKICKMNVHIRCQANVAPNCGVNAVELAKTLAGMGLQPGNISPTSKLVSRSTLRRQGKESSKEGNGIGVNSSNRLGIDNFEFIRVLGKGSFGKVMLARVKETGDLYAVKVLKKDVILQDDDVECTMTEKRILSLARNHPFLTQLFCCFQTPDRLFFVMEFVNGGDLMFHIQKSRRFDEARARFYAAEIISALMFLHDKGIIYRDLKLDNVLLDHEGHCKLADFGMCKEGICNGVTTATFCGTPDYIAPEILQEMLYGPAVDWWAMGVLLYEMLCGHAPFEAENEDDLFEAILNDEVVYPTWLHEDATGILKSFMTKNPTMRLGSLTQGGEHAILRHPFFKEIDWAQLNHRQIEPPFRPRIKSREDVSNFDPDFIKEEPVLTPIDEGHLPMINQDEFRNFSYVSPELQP"}
{"SMILES": "CC[C@H](C)[C@H](NC(=O)CNC(=O)[C@@H](N)CCCCN)C(=O)N[C@@H](CC(C)C)C(=O)N[C@@H](CCCCN)C(=O)N[C@@H](CCCNC(=N)N)C(=O)N[C@@H](CCC(=O)O)C(=O)N[C@@H](CCCCN)C(=O)N[C@@H](CCCNC(=N)N)C(=O)N[C@@H](CC(C)C)C(=O)N[C@@H](CCCNC(=N)N)C(=O)N[C@@H](CCCNC(=N)N)C(=O)N[C@@H](CCCCN)C(=O)N[C@@H](CC(N)=O)C(=O)N[C@H](C(=O)N[C@@H](Cc1c[nH]cn1)C(=O)N[C@@H](Cc1c[nH]c2ccccc12)C(=O)N1CCC[C@H]1C(=O)N[C@@H](CCC(=O)O)C(=O)N[C@@H](CCC(=O)O)C(=O)NCC(=O)N[C@@H](CCCCN)C(=O)N[C@@H](CC(C)C)C(=O)N[C@@H](CCCNC(=N)N)C(=O)N[C@@H](CCC(=O)O)C(=O)N[C@@H](Cc1ccccc1)C(=O)N[C@@H](Cc1ccccc1)C(=O)N[C@@H](Cc1ccccc1)C(=O)N[C@@H](Cc1ccccc1)C(=O)N[C@@H](CCC(=O)O)C(=O)N[C@@H](CC(C)C)C(=O)N[C@@H](CC(=O)O)C(=O)N[C@@H](CCC(=O)O)C(=O)N[C@@H](C)C(=O)N[C@@H](CCC(=O)O)C(=O)N[C@@H](CCCNC(=N)N)C(=O)N[C@H](C(=O)N[C@@H](CC(N)=O)C(=O)N[C@H](C(=O)O)C(C)C)C(C)C)C(C)C", "target or system": "HeLa and HEK-293T cells", "test": "phosphatase bead binding, competitive inhibitor, PIB pulldown iBAQ LC-MS/MS, item: PPP5C", "conditions": "concentration not given", "scale": "reference: untreated control", "quantity": "log2 fold change", "value": -0.07}
{"SMILES": "CCCCCCC[N+](CC)(CC)CCCCc1ccc(Cl)cc1.Cc1ccc(S(=O)(=O)[O-])cc1", "target or system": "BCHE", "conditions": "concentration not given, Triton", "quantity": "efficacy", "value": "-67.9 ± 1.83%"}
{"SMILES": "C[C@H]1c2cccc(O)c2C(=O)C2=C(O)[C@]3(O)C(=O)C(C(N)=O)=C(O)[C@@H](N(C)C)[C@@H]3[C@@H](O)[C@@H]21", "target or system": "Plasmodium falciparum", "test system": "Dd2", "quantity": "IC50", "value": "5.01 µM"}
{"SMILES": "COc1cc(O)ccc1OCCNCC(O)COc1cccc2[nH]c3ccccc3c12 (centres unmarked)", "target or system": "BCHE", "test": "inhibitor", "quantity": "efficacy", "value": "-100 ± 2.04%"}
{"SMILES": "C=CCN1CC[C@]23c4c5ccc(O)c4O[C@H]2C(=O)CC[C@]3(O)[C@H]1C5", "target or system": "CHRNA1/Acetylcholine receptor subunit delta (Homo sapiens, UniProt P02708+Q07001)", "conditions": "concentration not given", "quantity": "inhibition", "value": "-5.6%"}
{"SMILES": "COc1ccc(N2C(=O)N(c3c(C)cccc3Cl)Cc3cnc(Nc4ccc(C5CCN(C)CC5)cc4OC)nc32)nc1", "target or system": "Protein kinase C eta type (PRKCH, Homo sapiens, UniProt P24723)", "test": "kinase activity, inhibitor", "conditions": "0.5 µM, kinase PKC-ETA", "quantity": "inhibition", "value": "4%"}
{"SMILES": "O=C(NCCCCN1CCN(c2cccc(Cl)c2Cl)CC1)c1cc2ccccc2s1", "target or system": "BCHE", "conditions": "concentration not given, Triton", "quantity": "efficacy", "value": "-70 ± 11%"}
{"SMILES": "Oc1ccc2c3c1O[C@H]1[C@@H](O)CC[C@@]4(O)[C@@H](C2)N(CC2CCC2)CC[C@]314", "target or system": "Probable G-protein coupled receptor 141 (GPR141, Homo sapiens, UniProt Q7Z602)", "test": "β-arrestin recruitment, TANGO luminescence, item: GPR141", "conditions": "concentration not given", "scale": "reference: basal luminescence", "quantity": "log2 fold change", "value": 0.541}
{"SMILES": "Br.O=C(CN1C2=NCCN2c2ccccc21)c1ccc(-c2ccccc2)cc1", "target or system": "BCHE", "conditions": "concentration not given, Triton", "quantity": "efficacy", "value": "-106 ± 4.1%"}
{"SMILES": "O=C(Nc1cnccc1Cl)N1CCN(Cc2ccc3c(c2)OC(F)(F)O3)CC1", "target or system": "Alpha-2C adrenergic receptor (ADRA2C, Homo sapiens, UniProt P18825)", "test": "binding", "conditions": "10 µM, together with: [3H]rauwolscine", "quantity": "inhibition", "value": "22%"}
{"SMILES": "C[C@H]1CN(c2n[nH]c3nc(N[C@H]4CC[C@H](NS(=O)(=O)CCC(F)(F)F)CC4)ncc23)CCO1", "target or system": "Structural maintenance of chromosomes protein 2 (Homo sapiens, UniProt O95347)", "test": "Kinobeads competition, item: SMC2", "conditions": "0.8 µM, unit not given", "scale": "reference: vehicle", "quantity": "remaining binding", "value": 1.19}
{"SMILES": "COC(=O)[C@@H]1[C@H]2C[C@H]3c4[nH]c5ccccc5c4CCN3C[C@@H]2CC[C@@H]1O", "target or system": "Plasmodium falciparum", "test system": "HB3", "quantity": "IC50", "value": "3.98 µM"}
{"SMILES": "O=C(c1ccc(Cl)cc1)N1CCN2C(=O)N(OC(=O)N3CCOc4ccccc43)C(=O)C2C1 (centres unmarked)", "target or system": "Serine protease HTRA1 (Homo sapiens, UniProt Q92743)", "test": "enzyme activity, inhibitor, MS-based ABPP", "test system": "SW-620 conditioned medium", "conditions": "10 µM, 1 h, 37 °C", "scale": "reference: compound over DMSO, lower = stronger inhibition", "quantity": "median ratio", "value": 1.48}
{"SMILES": "CN(C(=O)n1cnc(-c2ccc[n+]([O-])c2)c1)C1CCCCC1", "target or system": "Protein S100-A16 (Rattus norvegicus, UniProt A0ACM8QDC9)", "test": "competitive ABPP with azido-FP probe", "test system": "rat brain membrane fraction", "conditions": "100 µM, unit not given", "scale": "reference: DMSO", "quantity": "probe labelling", "value": -2.6}
{"SMILES": "CN[C@]1(c2ccccc2Cl)CCCCC1=O", "target or system": "Neuronal acetylcholine receptor; alpha4/beta2 (Homo sapiens, UniProt P17787+P43681)", "test": "radioligand binding, agonist, radioligand displacement", "conditions": "30 µM", "quantity": "inhibition", "value": "-9%"}
{"SMILES": "O=C(Nc1cccnn1)N1CCC(=Cc2cccc(Oc3ccc(C(F)(F)F)cn3)c2)CC1", "target or system": "Histamine H1 receptor (HRH1, Homo sapiens, UniProt P35367)", "test": "radioligand binding", "conditions": "10 µM, together with: [3H]pyrilamine", "quantity": "inhibition of binding", "value": "36%"}
{"SMILES": "Cl.Cl.Clc1ccccc1CNCC1CCC(CNCc2ccccc2Cl)CC1 (centres unmarked)", "target or system": "BCHE", "test": "inhibitor, fluorescence", "quantity": "efficacy", "value": "-72.8 ± 15.4%"}
{"SMILES": "CN1CCN(c2cc(-c3ccncc3)c(-c3ccc4ccccc4c3)nn2)CC1", "target or system": "Neuropeptide Y receptor type 2 (NPY2R, Homo sapiens, UniProt P49146)", "test": "antagonist, FLIPR", "conditions": "10 µM", "quantity": "inhibition", "value": "-1.6%"}
{"SMILES": "CC[C@H]1CN2CC[C@H]1C[C@H]2[C@H](O)c1ccnc2ccc(OC)cc12", "target or system": "BCHE", "test": "inhibitor, fluorescence", "quantity": "efficacy", "value": "-94.8 ± 10.8%"}
{"SMILES": "Cc1sc2c(c1C)C(c1ccc(Cl)cc1)=N[C@@H](CC(=O)OC(C)(C)C)c1nnc(C)n1-2", "target or system": "W12E, differentiated", "test": "CUT&RUN-qPCR, item: HPV origin", "quantity": "53BP1 association", "value": "increased"}
{"note": "For quick reference, copied from above:"}
{"SMILES": "COc1cc(O)ccc1OCCNCC(O)COc1cccc2[nH]c3ccccc3c12 (centres unmarked)", "target or system": "BCHE", "test": "inhibitor", "quantity": "efficacy", "value": "-100 ± 2.04%"}
{"SMILES": "O=C(Nc1cccnn1)N1CCC(=Cc2cccc(Oc3ccc(C(F)(F)F)cn3)c2)CC1", "target or system": "Histamine H1 receptor (HRH1, Homo sapiens, UniProt P35367)", "test": "radioligand binding", "conditions": "10 µM, together with: [3H]pyrilamine", "quantity": "inhibition of binding", "value": "36%"}
